Measurements from different studies.
Numbered parts are unrelated; each lists some results of a single study. Changes are numbered by the printed parent chain.

Block 1
Target: HLA class I histocompatibility antigen, A alpha chain, allele A*25:01 (Homo sapiens, UniProt P04439)
Read-out: peptide-MHC binding
Form: peptide
Tested at: concentration not given
Quantity: binding
WPVMQWLTA: inactive
APFARLLNL: inactive
FTARIIIFS: inactive
NNIEFNFTY: inactive
MFWKLPPWL: inactive
KVGYFQHGA: inactive

Block 2
Target: Sal-like protein 4, full length isoform B (SALL4, Homo sapiens, UniProt Q9UJQ4-2, residues 1-616)
Technique: universal PBM
Form: double-stranded DNA, one strand shown
Medium: in vitro
Tested at: not given
Notes: 8-mer, flanks averaged, mean of replicates
Reading: higher = stronger binding
Quantity: E-score
CAGTTTTA: 0.121
ACGTATCT: 0.0281
GTAGCCCA: -0.163
CCAAACTA: 0.0741
ACAACGGC: -0.154
GTCTGTGA: -0.0678
ATGCATTA: 0.292
AGCCGAAC: -0.147

Block 3
Cell line: HEK-293T
Read-out: pseudovirus infection
Technique: FDA-approved drug library counter-screen
Organism: VSV pseudotyped with VSV-G
Tested at: 10 µM
Time: 16 h
Baseline: vehicle-treated
Quantity: GFP-positive cells
COC(=O)N[C@H](C(=O)N[C@@H](Cc1ccccc1)[C@@H](O)CN(Cc1ccc(-c2ccccn2)cc1)NC(=O)[C@@H](NC(=O)OC)C(C)(C)C)C(C)(C)C: 108%
O=C(OCc1ccccc1)c1ccccc1: 146%
CNNCc1ccc(C(=O)NC(C)C)cc1: 107%
C[C@H]1CNCCc2ccc(Cl)cc21: 128%

Block 4
Target: CCNB3, cyclin fold, Cln2 fusion (human)
Technique: yeast growth competition, sequencing
Medium: yeast
Notes: strong parent motif
Baseline: not given
Reading: higher = stronger binding
Quantity: normalised enrichment score
Starting sequence: viral docking peptide; YKVKRRLVFGADD
R5V: 0.905
A11K: 1.59
K2M: 2.16
R5L: 0.114
L7R: -0.264
A11V: 1.95
K4C: 1.86
V8R: 0.747
D13A: 1.09
V8F: 1.95
V8A: 0.769
V8K: 1.74
A11N: 2.39
R6C: 0.313
F9L: 0.363
F9M: 0.285
L7T: -0.133
K4Y: 0.714
L7H: -0.303
G10F: 0.896
R6H: 0.195
L7K: -0.275
V8W: 0.874
G10M: 1.14
G10W: 0.778

Block 5
Target: Prothrombin, mature alpha-thrombin (F2, Homo sapiens, UniProt P00734)
Technique: aptamer microarray, sandwich
Form: DNA with 2'F-ANA
Medium: in vitro
Tested at: 200 nM
Notes: whole 15-mer aptamer, many near background
Together with: Cy3 exosite-II aptamer, 400 nM
Reading: higher = stronger binding
Quantity: mean fluorescence intensity
Sequence: GGTTGGTGTGGTTGG
2'F-ANA at 1 5 6 7 12 13 14: 44.6 a.u.
2'F-ANA at 2 7 8 9 10 13: 124 a.u.
2'F-ANA at 1 7 8 12 13 15: 414 a.u.
2'F-ANA at 1 3 4 8 9 10 11 12 14 15: 52.7 a.u.
2'F-ANA at 2 6 7 8 12 14: 227 a.u.
2'F-ANA at 1 2 3 4 5 11: 53.8 a.u.
2'F-ANA at 1 3 4 5 8 9 13 14 15: 149 a.u.
2'F-ANA at 5 6 8 9 10 12 14: 50.9 a.u.

For quick reference, copied from above (block 4):
A11V: 1.95
K4C: 1.86
V8R: 0.747
D13A: 1.09
